# Measurements from different studies.
# ± gives the spread as reported.
# ACHE: Acetylcholinesterase (ACHE, Homo sapiens, UniProt P22303)
# Sequence of UniProt P22303 (whole entry, looked up): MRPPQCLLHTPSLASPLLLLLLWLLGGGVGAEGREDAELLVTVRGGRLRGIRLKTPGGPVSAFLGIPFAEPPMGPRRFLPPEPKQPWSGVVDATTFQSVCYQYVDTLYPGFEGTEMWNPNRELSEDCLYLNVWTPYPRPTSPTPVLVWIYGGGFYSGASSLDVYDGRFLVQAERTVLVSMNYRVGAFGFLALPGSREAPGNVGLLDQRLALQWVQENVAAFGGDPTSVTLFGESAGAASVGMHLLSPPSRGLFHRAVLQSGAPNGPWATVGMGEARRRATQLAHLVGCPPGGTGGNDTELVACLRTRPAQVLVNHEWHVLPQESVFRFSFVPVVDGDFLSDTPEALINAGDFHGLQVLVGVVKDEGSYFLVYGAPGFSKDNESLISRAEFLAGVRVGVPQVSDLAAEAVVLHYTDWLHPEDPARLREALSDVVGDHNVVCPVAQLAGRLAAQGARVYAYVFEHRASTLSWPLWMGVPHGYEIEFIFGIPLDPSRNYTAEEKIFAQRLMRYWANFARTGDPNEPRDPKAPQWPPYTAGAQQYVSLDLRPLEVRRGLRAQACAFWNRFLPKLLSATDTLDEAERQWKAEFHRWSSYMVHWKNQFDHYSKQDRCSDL
# PFF0160c E182D: Dihydroorotate dehydrogenase (quinone), mitochondrial (PFF0160c, Plasmodium falciparum, UniProt Q08210, E182D)
# Sequence of UniProt Q15758 (whole entry, looked up): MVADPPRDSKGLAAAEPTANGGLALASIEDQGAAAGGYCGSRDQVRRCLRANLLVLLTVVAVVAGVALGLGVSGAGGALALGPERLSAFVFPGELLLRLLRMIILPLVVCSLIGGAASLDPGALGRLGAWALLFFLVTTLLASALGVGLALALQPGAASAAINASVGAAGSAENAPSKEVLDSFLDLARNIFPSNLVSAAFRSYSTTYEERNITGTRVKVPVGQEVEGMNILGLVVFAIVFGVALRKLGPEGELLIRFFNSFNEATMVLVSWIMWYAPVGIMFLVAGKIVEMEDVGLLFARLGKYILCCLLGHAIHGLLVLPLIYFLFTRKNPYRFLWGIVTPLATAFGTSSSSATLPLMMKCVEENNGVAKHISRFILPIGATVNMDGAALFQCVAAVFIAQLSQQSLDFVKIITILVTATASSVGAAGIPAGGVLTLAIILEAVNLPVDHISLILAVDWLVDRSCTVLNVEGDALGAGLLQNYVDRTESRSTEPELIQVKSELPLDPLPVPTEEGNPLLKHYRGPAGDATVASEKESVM
# Sequence of UniProt P49116 (whole entry, looked up): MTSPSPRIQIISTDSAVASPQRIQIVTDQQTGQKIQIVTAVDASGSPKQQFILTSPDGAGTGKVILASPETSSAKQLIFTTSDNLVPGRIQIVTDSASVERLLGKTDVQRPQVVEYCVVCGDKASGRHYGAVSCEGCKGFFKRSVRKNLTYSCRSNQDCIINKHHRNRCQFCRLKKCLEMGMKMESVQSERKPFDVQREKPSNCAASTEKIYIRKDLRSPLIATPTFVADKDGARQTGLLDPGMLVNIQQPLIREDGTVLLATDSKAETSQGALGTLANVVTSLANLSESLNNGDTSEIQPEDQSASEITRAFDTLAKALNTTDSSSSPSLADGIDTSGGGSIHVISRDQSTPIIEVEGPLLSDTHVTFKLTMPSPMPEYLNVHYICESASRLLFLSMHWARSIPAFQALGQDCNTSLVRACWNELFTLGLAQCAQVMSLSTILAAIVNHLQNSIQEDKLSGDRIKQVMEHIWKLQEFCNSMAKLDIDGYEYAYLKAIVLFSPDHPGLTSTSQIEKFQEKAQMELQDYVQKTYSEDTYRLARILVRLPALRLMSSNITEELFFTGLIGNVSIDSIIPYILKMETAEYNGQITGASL
# Sequence of UniProt Q91XE4 (whole entry, looked up): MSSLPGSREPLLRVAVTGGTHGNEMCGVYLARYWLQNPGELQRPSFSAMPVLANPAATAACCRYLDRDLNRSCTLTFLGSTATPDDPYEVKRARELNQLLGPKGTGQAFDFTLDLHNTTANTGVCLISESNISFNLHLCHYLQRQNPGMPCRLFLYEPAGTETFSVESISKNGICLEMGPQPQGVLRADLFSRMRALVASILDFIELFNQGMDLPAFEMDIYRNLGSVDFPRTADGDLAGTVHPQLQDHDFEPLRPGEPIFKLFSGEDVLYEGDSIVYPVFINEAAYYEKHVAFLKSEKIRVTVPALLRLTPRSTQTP
# Sequence of UniProt Q9GZZ6 (whole entry, looked up): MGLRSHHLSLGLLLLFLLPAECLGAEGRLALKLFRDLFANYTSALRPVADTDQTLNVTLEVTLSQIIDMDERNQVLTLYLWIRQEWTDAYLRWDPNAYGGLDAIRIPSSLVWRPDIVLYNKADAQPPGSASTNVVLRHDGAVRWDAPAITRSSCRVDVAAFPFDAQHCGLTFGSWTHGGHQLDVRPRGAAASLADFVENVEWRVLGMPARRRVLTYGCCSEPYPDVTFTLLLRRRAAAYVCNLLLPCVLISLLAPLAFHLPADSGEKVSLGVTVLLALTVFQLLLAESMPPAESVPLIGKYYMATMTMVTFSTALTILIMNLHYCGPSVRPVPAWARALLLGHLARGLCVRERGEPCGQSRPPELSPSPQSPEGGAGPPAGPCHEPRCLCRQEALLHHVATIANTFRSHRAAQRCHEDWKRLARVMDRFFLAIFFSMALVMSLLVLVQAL
# Sequence of UniProt P14868 (whole entry, looked up): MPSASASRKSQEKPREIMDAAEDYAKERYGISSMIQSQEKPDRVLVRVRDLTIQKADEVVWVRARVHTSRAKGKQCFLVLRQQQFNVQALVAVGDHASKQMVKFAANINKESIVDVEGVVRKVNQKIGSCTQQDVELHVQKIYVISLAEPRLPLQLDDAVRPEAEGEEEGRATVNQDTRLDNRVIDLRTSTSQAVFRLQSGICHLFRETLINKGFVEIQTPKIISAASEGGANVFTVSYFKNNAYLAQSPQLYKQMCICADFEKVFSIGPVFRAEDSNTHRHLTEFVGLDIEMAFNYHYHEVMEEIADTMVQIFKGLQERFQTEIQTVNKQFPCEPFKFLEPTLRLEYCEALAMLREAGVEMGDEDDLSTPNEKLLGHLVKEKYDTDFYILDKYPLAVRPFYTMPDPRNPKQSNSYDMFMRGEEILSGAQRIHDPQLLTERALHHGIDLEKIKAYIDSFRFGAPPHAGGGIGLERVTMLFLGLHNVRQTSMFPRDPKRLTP
# Sequence of UniProt Q9UGM1 (whole entry, looked up): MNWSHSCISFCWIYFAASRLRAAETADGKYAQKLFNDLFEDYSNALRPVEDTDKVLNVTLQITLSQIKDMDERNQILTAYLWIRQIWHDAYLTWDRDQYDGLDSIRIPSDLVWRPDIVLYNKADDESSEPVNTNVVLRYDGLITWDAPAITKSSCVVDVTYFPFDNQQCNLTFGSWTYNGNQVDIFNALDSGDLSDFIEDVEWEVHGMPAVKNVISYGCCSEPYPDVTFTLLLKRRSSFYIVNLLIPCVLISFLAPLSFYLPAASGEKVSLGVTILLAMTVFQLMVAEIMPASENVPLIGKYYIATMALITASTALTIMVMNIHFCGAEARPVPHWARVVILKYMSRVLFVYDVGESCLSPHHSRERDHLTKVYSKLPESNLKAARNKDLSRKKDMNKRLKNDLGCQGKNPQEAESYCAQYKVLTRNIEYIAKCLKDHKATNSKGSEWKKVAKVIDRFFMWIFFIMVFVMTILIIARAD
# Sequence of UniProt P10721 (whole entry, unmodified, looked up): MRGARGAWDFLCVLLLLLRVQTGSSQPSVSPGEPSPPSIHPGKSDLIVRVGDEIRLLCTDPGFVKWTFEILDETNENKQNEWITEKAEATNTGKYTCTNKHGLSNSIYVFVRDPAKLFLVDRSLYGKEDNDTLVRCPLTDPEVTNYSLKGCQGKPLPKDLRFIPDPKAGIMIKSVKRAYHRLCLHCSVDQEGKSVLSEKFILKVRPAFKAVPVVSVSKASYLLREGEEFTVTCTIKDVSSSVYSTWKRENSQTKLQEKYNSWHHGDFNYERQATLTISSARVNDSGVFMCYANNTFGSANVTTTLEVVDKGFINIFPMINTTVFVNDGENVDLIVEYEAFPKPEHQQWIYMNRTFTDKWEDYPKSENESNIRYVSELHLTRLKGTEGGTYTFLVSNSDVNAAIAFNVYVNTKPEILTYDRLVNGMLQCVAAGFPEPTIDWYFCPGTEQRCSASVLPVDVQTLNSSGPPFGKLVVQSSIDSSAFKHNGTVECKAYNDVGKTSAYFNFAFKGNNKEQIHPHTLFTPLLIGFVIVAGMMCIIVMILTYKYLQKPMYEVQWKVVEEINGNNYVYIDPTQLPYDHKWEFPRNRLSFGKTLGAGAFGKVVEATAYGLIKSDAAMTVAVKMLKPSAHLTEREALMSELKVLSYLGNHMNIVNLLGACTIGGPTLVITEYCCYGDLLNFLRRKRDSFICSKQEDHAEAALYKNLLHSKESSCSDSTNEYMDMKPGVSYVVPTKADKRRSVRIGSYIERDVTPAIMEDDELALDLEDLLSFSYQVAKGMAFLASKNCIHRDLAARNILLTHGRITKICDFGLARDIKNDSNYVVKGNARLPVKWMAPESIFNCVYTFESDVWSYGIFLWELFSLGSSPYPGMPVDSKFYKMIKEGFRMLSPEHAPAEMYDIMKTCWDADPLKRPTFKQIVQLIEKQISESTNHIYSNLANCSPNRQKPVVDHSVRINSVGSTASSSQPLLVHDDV
# Sequence of UniProt P53778 (whole entry, looked up): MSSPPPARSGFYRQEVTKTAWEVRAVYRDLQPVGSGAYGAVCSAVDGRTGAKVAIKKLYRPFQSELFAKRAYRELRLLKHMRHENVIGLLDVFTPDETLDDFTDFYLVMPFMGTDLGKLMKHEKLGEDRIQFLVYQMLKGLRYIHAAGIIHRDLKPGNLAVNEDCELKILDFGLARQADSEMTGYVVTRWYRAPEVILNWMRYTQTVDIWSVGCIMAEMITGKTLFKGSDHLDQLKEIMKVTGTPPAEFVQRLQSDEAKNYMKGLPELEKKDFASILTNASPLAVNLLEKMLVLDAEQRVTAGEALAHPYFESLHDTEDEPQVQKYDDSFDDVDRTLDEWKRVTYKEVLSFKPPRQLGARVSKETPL
SMILES,target,test,system,conditions,scale,quantity,result
C=C1[C@@H]2CC[C@@]3(C)[C@H](c4ccoc4)OC(=O)C[C@]13O[C@H]1CC(=O)C(C)(C)[C@H](CC(=O)OC)[C@]12C,ACHE,,biochemical,concentration not given,,activity class,inactive
O=C(Nc1cccc(CN2CCN(C(=O)c3cccc(Cl)c3)CC2)c1)c1cccs1.O=C(O)C(F)(F)F,PFF0160c E182D,"enzyme activity, DCIP colorimetric",,,reference: E182D mutant over wild type,IC50 ratio,4
c1ccc2c3c(ccc2c1)-c1cccc2cccc-3c12,"Aryl hydrocarbon receptor (Danio rerio, UniProt Q9YGV3)","reporter gene, agonist, luciferase reporter",ZF-4,1.524 µM,reference: vehicle control,fold change,1.55
CC(=O)c1c(Cc2ccccc2Cl)c[nH]c1C,PFF0160c E182D,"enzyme activity, DCIP colorimetric",,,reference: E182D mutant over wild type,IC50 ratio,0.2
O=C(Nc1cnccc1Cl)N1CCN(Cc2ccc3c(c2)OC(F)(F)O3)CC1,"KATP channel, hamster",binding,,"50 µM, together with: [3H]glyburide",,inhibition,13%
CCN1/C(=C/C(C)=O)Sc2ccc(F)cc21,"ADRA2B (Homo sapiens, UniProt P18089)",TGFα shedding,,,reference: α2A over α2B,IC50 ratio,> 12
Nc1c2c(nc3sc4c(c13)CCCC4)CCCC2,"Glideosome-associated protein 50 (GAP50, Plasmodium falciparum, UniProt Q8I2X3)","binding, surface plasmon resonance",,1:1 binding model,,koff,1.84 s⁻¹
CN1C2CCCC1CC(NC(=O)c1nn(C)c3ccccc13)C2 (stereo not shown),"Htr3a (Mus musculus, UniProt P23979, W90X)","antagonist, voltage clamp",Xenopus oocytes,,,Hill coefficient,-1.1 ± 0.1
COc1cc(/C=C/c2ccc(O)cc2)cc(OC)c1,"O-methyltransferase (Sorghum bicolor, UniProt A0A1B6PFV1, W279A)",isothermal titration calorimetry,,apo protein,,-T∆S,3.36 kcal/mol
CC(=O)N[C@@H](CSCCC=O)C(=O)O,"N-acyl-aromatic-L-amino acid amidohydrolase (carboxylate-forming) (Acy3, Mus musculus, UniProt Q91XE4)","enzyme activity, substrate, fluorescamine fluorescence",,without Co2+,,Km,820 µM
CC(CCc1ccccc1)NC(C)C(O)c1ccc(O)cc1 (stereo not shown),ACHE,,biochemical,concentration not given,,activity class,inactive
CC(=O)C1C(=O)c2ccccc2C1=O,"Bile acid receptor (NR1H4, Homo sapiens, UniProt Q96RI1)",,cells,concentration not given,,activity,inactive
CC(=O)NC[C@H]1[C@H](O)[C@H](O)[C@@H]2[C@H](O)C[C@@H](CO)N21,Spodoptera litura β-N-acetylglucosaminidase,,crude enzyme,"0.0125 µM, run 2, together with: p-nitrophenyl GlcNAc",,inhibition,47.7%
Cc1ccc2c(c1)c1c(n2CCc2ccc(C)nc2)CCN(C)C1,ACHE,,biochemical,concentration not given,,activity class,inactive
CC[C@H](C)[C@H](NC(=O)CNC(=O)[C@@H](N)CCCCN)C(=O)N[C@@H](CC(C)C)C(=O)N[C@@H](CCCCN)C(=O)N[C@@H](CCCNC(=N)N)C(=O)N[C@@H](CCC(=O)O)C(=O)N[C@@H](CCCCN)C(=O)N[C@@H](CCCNC(=N)N)C(=O)N[C@@H](CC(C)C)C(=O)N[C@@H](CCCNC(=N)N)C(=O)N[C@@H](CCCNC(=N)N)C(=O)N[C@@H](CCCCN)C(=O)N[C@@H](CC(N)=O)C(=O)N[C@H](C(=O)N[C@@H](Cc1c[nH]cn1)C(=O)N[C@@H](Cc1c[nH]c2ccccc12)C(=O)N1CCC[C@H]1C(=O)N[C@@H](CCC(=O)O)C(=O)N[C@@H](CCC(=O)O)C(=O)NCC(=O)N[C@@H](CCCCN)C(=O)N[C@@H](CC(C)C)C(=O)N[C@@H](CCCNC(=N)N)C(=O)N[C@@H](CCC(=O)O)C(=O)N[C@@H](Cc1ccc(O)cc1)C(=O)N[C@@H](Cc1ccccc1)C(=O)N[C@@H](Cc1ccc(O)cc1)C(=O)N[C@@H](Cc1ccccc1)C(=O)N[C@@H](CCC(=O)O)C(=O)N[C@@H](CC(C)C)C(=O)N[C@@H](CC(=O)O)C(=O)N[C@@H](CCC(=O)O)C(=O)N[C@@H](C)C(=O)N[C@@H](CCC(=O)O)C(=O)N[C@@H](CCCNC(=N)N)C(=O)N[C@H](C(=O)N[C@@H](CC(N)=O)C(=O)N[C@H](C(=O)O)C(C)C)C(C)C)C(C)C,protein phosphatase 1 complexes,"bead binding, competitive inhibitor, inhibitor bead pulldown LC-MS/MS, measured: URI1","HeLa and HEK293T cells, cell lysate",concentration not given,reference: compound over control,log2 fold change,-7.45
CCOC(=O)COc1ccc2c(=O)c3ccccc3oc2c1,"ache (Electrophorus electricus, UniProt O42275)",enzyme activity,,"0.42 µM, together with: substrate 0.43 mM",higher = faster reaction,reaction velocity,0.0006 a.u.
CC1(C)CN(CCCCC(=O)N[C@H](Cc2ccc(O)c(I)c2)C(=O)N[C@H](Cc2ccccc2)C(=O)N[C@H](CCCCNC(=O)CCCCCCC(=O)NCCCC[C@H](NC(=O)N[C@@H](CCC(=O)O)C(=O)O)C(=O)O)C(=O)O)CC[N]2CC(C)(C)[S][Tc]2(=[O])[S]1 (stereo partly shown) [technetium-99m labelled],"FOLH1 (Homo sapiens, UniProt Q04609)",saturation binding,LNCaP,,,Bmax,10.4 µmol/mg
C[C@H]1CN(c2n[nH]c3nc(N[C@H]4CC[C@H](NS(=O)(=O)CCC(F)(F)F)CC4)ncc23)CCO1,"DARS1 (Homo sapiens, UniProt P14868)","Kinobeads competition, measured: DARS",,"20 µM, unit not given",reference: vehicle,remaining binding,1.26
C=C(C)[C@H]1CN[C@H](C(=O)O)[C@H]1CC(=O)O,"uncharacterized protein (Ixodes scapularis, UniProt A0A0N9E2I2)","L-glutamate-like response, two-electrode voltage clamp",Xenopus laevis oocytes,100 µM,,activity,inactive
[2H]c1c([2H])c([C@]2([2H])CCCN2C(=O)C(C)(C)Oc2ccc3cn[nH]c3c2)c([2H])c([2H])c1C([2H])([2H])[2H],"STK11 (Homo sapiens, UniProt Q15831)",KINOMEscan,,1 µM,reference: DMSO control,remaining binding,86%
O=C(Nc1cccnn1)N1CCC(=Cc2cccc(Oc3ccc(C(F)(F)F)cn3)c2)CC1,"SLC6A4 (Homo sapiens, UniProt P31645)","radioligand binding, inhibitor",,"50 µM, human, together with: [3H]paroxetine",,inhibition,34%
CCCCC(=O)O,medium-chain acyl-CoA synthetase A461K,substrate,,,,Km,330 ± 30 µM
COc1ccc(Nc2nn3c(-c4ccccc4)ccnc3c2C(=O)Nc2ccccc2)cc1,α-amylase isoenzymes,native PAGE densitometry,,1 mg/mL,reference: untreated enzyme (band absent),abnormal band quantity,25.5 a.u.
COc1ccc(C(CN(C)C)C2(O)CCCCC2)cc1 (stereo not shown),"Nuclear receptor subfamily 2 group C member 2, ligand-binding domain (Homo sapiens, UniProt P49116)",SPR imaging,,600 nM,,koff,7.25e-05 s⁻¹
COc1ccc(N2C(=O)N(c3c(C)cccc3Cl)Cc3cnc(Nc4ccc(C5CCN(C)CC5)cc4OC)nc32)nc1,"HASPIN (Homo sapiens, UniProt Q8TF76)",kinase activity,,0.5 µM,,inhibition,13%
COc1cc(C(=O)N2CC[C@@H](O)[C@@H](N)C2)cc2nc(-c3cc4ccccc4n3CC3CC3)n(C)c12,"PADI1 (Homo sapiens, UniProt Q9ULC6)","enzyme activity, cell lysate",HEK293 expressing PADI1,"100 µM, together with: calcium 2 mM",,citrullination,no effect
CC(=O)c1c(Cc2cccc(C(F)(F)F)c2)c[nH]c1C,PFF0160c E182D,"enzyme activity, DCIP colorimetric",,,reference: E182D mutant over wild type,IC50 ratio,0.2
O=C(c1ccc(Cl)cc1)N1CCN2C(=O)N(OC(=O)N3CCOc4ccccc43)C(=O)C2C1 (stereo not shown),"SLC1A5 (Homo sapiens, UniProt Q15758)",MS-based ABPP,SW-620 conditioned medium,"10 µM, 1 h, 37 °C","reference: compound over DMSO, lower = more inhibition",mean protein ratio,1.26
O=C(CN1CCN(C(=O)c2ccco2)CC1)Nc1ccccc1Br,PFF0160c E182D,"enzyme activity, DCIP colorimetric",,,reference: E182D mutant over wild type,IC50 ratio,1
Nc1ncc(-c2nc(N3CCOCC3)nc(N3CCOCC3)n2)c(C(F)F)n1,"KIT (Homo sapiens, UniProt P10721, D816H)",KINOMEscan,,10 µM,,remaining binding,89%
CN1CCN(c2cc(-c3ccncc3)c(-c3ccc4ccccc4c3)nn2)CC1,"CRHR2 (Homo sapiens, UniProt Q13324)","agonist, FLIPR",,12.5 µM,,activation,-0.7%
CC[C@@H](C)[C@@H](NC(=O)[C@@H](Cc1ccc(O)cc1)NC(=O)[C@H]1CCCN1C(=O)[C@@H](CCCNC(=N)N)NC(=O)[C@H](N)Cc1c[nH]cn1)C(=O)N[C@H](C)C(=O)N[C@H](Cc1c[nH]cn1)C(=O)N[C@H](CCCNC(=N)N)C(=O)N[C@H](CCCCNC(=O)c1cccc(S(=O)(=O)F)c1)C(=O)N[C@H](Cc1ccc(O)cc1)C(=O)N[C@H](CO)C(=O)N[C@H](Cc1ccccc1)C(N)=O,"Transferrin receptor protein 1 (Tfrc, Mus musculus, UniProt Q62351)",flow cytometry,DC2.4,"2 h, pH 7.4, unit not given",reference: 0 h,surface TFRC expression,1.02
COc1ccc2c3c([nH]c2c1)CCN(C)CC3.O=C(O)/C=C/C(=O)O,"Neuronal acetylcholine receptor; alpha9/alpha10 (Homo sapiens, UniProt Q9GZZ6+Q9UGM1)","ion current, inhibitor, two-electrode voltage clamp",Xenopus laevis oocytes,"3 µM, human receptor, together with: acetylcholine 6 µM",,recovery time constant,9.6 ± 0.3 s
COc1cc(N)c(Cl)cc1C(=O)NC1CN2CCC1CC2 (stereo not shown),"GPBAR1 (Homo sapiens, UniProt Q8TDU6)","receptor activation, TANGO luminescence",,"concentration not given, unconfirmed screen",reference: vehicle control,log2 fold change,0.162
COc1cc(Nc2ncc(F)c(Nc3ccc4c(n3)NC(=O)C(C)(C)O4)n2)cc(OC)c1OC,"MAPK12 (Homo sapiens, UniProt P53778)",KINOMEscan,,"10 µM, p38-gamma",,inhibition,99%
OC1Cc2ccccc2CC1N1CCC2(C=Cc3cc(F)ccc32)CC1 (racemic),"Vesicular acetylcholine transporter (Rattus norvegicus, UniProt Q62666)",,rat liver (sigma2),,reference: Ki sigma2 over Ki VAChT,selectivity ratio,14
C[n+]1cn([C@@H]2O[C@H](COP(=O)([O-])OP(=O)(O)OP(=O)(O)OC[C@H]3O[C@@H](n4cnc5c(=O)[nH]c(N)nc54)[C@H](O)[C@@H]3O)[C@@H](O)[C@H]2O)c2nc(N)[nH]c(=O)c21,"m7GpppX diphosphatase (DCS1, Saccharomyces cerevisiae, UniProt Q06151, H268N/K126A)","binding, ITC",,,,ΔH second site,-21.3 kcal/mol

# Excerpt of the above:
SMILES,target,test,system,conditions,scale,quantity,result
C[C@H]1CN(c2n[nH]c3nc(N[C@H]4CC[C@H](NS(=O)(=O)CCC(F)(F)F)CC4)ncc23)CCO1,"DARS1 (Homo sapiens, UniProt P14868)","Kinobeads competition, measured: DARS",,"20 µM, unit not given",reference: vehicle,remaining binding,1.26
CC(CCc1ccccc1)NC(C)C(O)c1ccc(O)cc1 (stereo not shown),ACHE,,biochemical,concentration not given,,activity class,inactive
